Experimental data from different studies.
Lines come from different studies, so protocols differ. Numbers after ± are the reported error.

Compound	cell line	test	conditions	IC50
CC(C)Oc1ccc(C(=O)Cn2ccnc2)cc1-n1c(CN2CCN(C(=O)COc3ccc(Cl)cc3)CC2)nc2ccccc2c1=O	A3/KAW	cell viability, CellTiter-Glo	24 h	> 10 µM
COC(=O)c1c(-c2ccc(OC)cc2)c2n(c1C(=O)OC)CCn1cccc1-2	PANC-1	cell growth or viability, MTT	48 h	65.3 µM
COc1cc(C(=O)c2sc3ccccc3c2NC(=O)CCl)cc(OC)c1OC	L1210	cell growth or viability	24 h	0.46 µM
O=C(/C=C/c1ccc(O)c(CN2CCCCC2)c1)c1ccc(F)cc1	WRL68	cell growth or viability, MTT	72 h	22.9 µM
C=CCc1ccc(O)c(-c2ccc(O)c(CC=C)c2)c1	GM12878	cell proliferation, MTS	72 h, with: BLM 10 µM	100 µM
Cc1cnc(-c2ccc(-c3ccc(NC(=O)Nc4c(F)cc(F)cc4F)cc3F)c3c2C(=O)NC3)[nH]1	primary AML mononuclear cells	cell viability, MTS	–	< 0.2 µM
C[C@@H](Cn1ccc(-c2ccc(C#N)c(Cl)c2)n1)NC(=O)c1cc([C@@H](C)O)[nH]n1	LAPC4	cell growth or viability, ATP luminescence	–	0.44 µM
CCCCCCCCCCCCCC(=O)NCCC[N+](C)(C)CCCS(=O)(=O)[O-]	SK-OV-3 eGFP-transfected	cell viability, MTT	24 h	220 µM
CC(C)=CCC[C@]1(C)C=Cc2c(O)c3c(c(CC=C(C)C)c2O1)O[C@]12C(=C[C@@H]4C[C@H]1C(C)(C)O[C@@]2(C/C=C(/C)C(=O)O)C4=O)C3=O	LAPC4	AR transcriptional activity, antagonist, PSA promoter luciferase	24 h	0.269 µM
COc1ccccc1-c1nccc(COc2ccccc2C[C@@H](Nc2ncnc3oc(-c4ccc(F)cc4)c(-c4ccc(OCCN5CCN(C)CC5)c(Cl)c4C)c23)C(=O)O)n1	NCI-H929	cell viability, MTT	48 h, 10% CFS	0.018 µM
C[C@H]1O[C@@H](O[C@H]2CC[C@@]3(C)[C@@H](CC[C@]4(C)[C@@H]3C=C[C@]35OC[C@@]6(CCC(C)(C)C[C@H]63)[C@@H](O)C[C@]54C)[C@]2(C)CO)[C@H](O)[C@@H](O[C@@H]2O[C@H](CO)[C@@H](O)[C@H](O)[C@H]2O)[C@H]1O	L02	cell growth or viability	24 h	11.1 µM
Nc1ccc(/C=C/C(=O)N2CCc3c(oc4c(-c5ccc(F)cc5)cc(-c5ccc(C(=O)N6C[C@@H]7[C@H](C6)C7(F)F)nn5)cc34)C2)cn1	U2OS	cell growth or viability, CCK-8	72 h	0.39 to 1.08 µM
O=C(NNC(=O)c1c(O)ccc2ccccc12)c1cccnc1	PANC-1	cell growth or viability	72 h	> 10 µM
O=C(/C=C/c1ccc(O)cc1)CC(=O)/C=C/c1ccc(O)cc1	Hs68	cell growth or viability, MTT	48 h	> 100 µg/mL
COc1ccc(Nc2ncnc(-c3cccnc3Nc3cc(NC(=O)c4ccc(CN5CCN(C)CC5)cc4)ccc3C)n2)cc1	Ba/F3 expressing native BCR-ABL	cell proliferation, inhibitor, trypan blue exclusion	48 h, without IL-3	< 0.01 µM
Cn1cc(Nc2nccc(-c3ccc4c(c3)CN(C3COC3)CC[C@H]4NC(=O)c3cn(C(C)(C)C)nn3)n2)cn1	human primary monocytes	TNFα production	three donors, with: anti-human CD16 (FcγR stimulation)	0.008 ± 0.009 µM
COc1ccc2c(NC(=O)CCl)c(C(=O)c3cc(OC)c(OC)c(OC)c3)oc2c1	L1210	cell growth or viability	24 h	0.056 µM
COc1ccc2c(C)cc(=O)oc2c1	NIH3T3	hyaluronan secretion	72 h	223 ± 140 µM
COc1ccc(C[C@H](N)C(=O)N[C@H]2[C@@H](O)[C@H](n3cnc4c(N(C)C)ncnc43)O[C@@H]2CO)cc1	NIH3T3	resazurin	250 cells per well	4.69 ± 0.13 µM
COc1cc(-c2c3n(c4c(=O)[nH]nc(O)c24)CCn2cccc2-3)cc(OC)c1OC	PANC-1	cell growth or viability, MTT	48 h	72.8 µM
COc1ccc2cc(-c3cc4ccccc4[nH]3)ccc2c1	HEK293 NF-κB luciferase reporter	reporter gene, refers to: NF-κB	6 h, with: TNFα	0.6 ± 0.2 µM
Cc1cc(C(=O)/C(=C\c2ccc(Cl)cc2)c2ccc(Cl)cc2)c(C(=O)N2CCCCC2)c(=O)[nH]1	human primary dermal fibroblasts	cell proliferation, MTT	72 h	> 10 µM
Cc1ccccc1-c1c2n(c3c(=O)[nH]nc(O)c13)CCn1cccc1-2	PANC-1	cell growth or viability, MTT	48 h	60.6 µM
